Assay results pooled from the literature.
Numbered parts are unrelated; each lists some results of a single study.
Sequence of UniProt P07948 (whole entry, looked up): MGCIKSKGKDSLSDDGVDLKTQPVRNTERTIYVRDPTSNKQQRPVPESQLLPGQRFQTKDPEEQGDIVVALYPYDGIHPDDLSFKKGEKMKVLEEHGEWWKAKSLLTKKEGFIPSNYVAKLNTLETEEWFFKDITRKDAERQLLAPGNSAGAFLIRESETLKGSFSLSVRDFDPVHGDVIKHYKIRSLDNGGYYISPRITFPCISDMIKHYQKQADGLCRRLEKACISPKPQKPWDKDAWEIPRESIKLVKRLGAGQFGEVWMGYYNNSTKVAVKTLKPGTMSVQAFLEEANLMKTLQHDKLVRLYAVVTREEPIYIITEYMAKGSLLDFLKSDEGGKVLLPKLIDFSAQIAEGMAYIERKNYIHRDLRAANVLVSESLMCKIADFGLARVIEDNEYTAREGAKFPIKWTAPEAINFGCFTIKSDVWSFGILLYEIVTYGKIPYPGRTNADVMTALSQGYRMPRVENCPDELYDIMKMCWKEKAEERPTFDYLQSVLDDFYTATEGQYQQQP
Sequence of UniProt P52564 (whole entry, looked up): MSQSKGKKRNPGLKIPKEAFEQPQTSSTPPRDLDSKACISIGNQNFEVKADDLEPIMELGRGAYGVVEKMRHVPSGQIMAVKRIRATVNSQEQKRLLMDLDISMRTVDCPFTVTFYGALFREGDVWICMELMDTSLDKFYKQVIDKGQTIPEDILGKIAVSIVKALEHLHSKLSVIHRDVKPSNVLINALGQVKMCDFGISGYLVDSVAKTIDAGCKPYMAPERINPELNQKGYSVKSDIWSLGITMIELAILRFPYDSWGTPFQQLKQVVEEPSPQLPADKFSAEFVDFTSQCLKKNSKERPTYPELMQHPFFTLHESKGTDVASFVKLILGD
Sequence of UniProt P68400 (whole entry, looked up): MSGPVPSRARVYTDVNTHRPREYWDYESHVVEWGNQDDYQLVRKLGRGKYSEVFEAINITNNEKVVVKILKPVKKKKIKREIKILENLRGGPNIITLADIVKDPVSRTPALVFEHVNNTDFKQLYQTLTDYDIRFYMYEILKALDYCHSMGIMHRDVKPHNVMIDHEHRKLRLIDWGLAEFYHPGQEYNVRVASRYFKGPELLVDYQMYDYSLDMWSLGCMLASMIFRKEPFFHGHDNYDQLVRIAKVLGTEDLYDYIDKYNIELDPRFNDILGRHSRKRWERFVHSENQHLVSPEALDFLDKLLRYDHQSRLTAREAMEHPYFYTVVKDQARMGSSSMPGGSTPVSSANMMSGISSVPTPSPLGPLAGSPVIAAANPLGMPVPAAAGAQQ
Sequence of UniProt Q9Y3S1 (whole entry, looked up): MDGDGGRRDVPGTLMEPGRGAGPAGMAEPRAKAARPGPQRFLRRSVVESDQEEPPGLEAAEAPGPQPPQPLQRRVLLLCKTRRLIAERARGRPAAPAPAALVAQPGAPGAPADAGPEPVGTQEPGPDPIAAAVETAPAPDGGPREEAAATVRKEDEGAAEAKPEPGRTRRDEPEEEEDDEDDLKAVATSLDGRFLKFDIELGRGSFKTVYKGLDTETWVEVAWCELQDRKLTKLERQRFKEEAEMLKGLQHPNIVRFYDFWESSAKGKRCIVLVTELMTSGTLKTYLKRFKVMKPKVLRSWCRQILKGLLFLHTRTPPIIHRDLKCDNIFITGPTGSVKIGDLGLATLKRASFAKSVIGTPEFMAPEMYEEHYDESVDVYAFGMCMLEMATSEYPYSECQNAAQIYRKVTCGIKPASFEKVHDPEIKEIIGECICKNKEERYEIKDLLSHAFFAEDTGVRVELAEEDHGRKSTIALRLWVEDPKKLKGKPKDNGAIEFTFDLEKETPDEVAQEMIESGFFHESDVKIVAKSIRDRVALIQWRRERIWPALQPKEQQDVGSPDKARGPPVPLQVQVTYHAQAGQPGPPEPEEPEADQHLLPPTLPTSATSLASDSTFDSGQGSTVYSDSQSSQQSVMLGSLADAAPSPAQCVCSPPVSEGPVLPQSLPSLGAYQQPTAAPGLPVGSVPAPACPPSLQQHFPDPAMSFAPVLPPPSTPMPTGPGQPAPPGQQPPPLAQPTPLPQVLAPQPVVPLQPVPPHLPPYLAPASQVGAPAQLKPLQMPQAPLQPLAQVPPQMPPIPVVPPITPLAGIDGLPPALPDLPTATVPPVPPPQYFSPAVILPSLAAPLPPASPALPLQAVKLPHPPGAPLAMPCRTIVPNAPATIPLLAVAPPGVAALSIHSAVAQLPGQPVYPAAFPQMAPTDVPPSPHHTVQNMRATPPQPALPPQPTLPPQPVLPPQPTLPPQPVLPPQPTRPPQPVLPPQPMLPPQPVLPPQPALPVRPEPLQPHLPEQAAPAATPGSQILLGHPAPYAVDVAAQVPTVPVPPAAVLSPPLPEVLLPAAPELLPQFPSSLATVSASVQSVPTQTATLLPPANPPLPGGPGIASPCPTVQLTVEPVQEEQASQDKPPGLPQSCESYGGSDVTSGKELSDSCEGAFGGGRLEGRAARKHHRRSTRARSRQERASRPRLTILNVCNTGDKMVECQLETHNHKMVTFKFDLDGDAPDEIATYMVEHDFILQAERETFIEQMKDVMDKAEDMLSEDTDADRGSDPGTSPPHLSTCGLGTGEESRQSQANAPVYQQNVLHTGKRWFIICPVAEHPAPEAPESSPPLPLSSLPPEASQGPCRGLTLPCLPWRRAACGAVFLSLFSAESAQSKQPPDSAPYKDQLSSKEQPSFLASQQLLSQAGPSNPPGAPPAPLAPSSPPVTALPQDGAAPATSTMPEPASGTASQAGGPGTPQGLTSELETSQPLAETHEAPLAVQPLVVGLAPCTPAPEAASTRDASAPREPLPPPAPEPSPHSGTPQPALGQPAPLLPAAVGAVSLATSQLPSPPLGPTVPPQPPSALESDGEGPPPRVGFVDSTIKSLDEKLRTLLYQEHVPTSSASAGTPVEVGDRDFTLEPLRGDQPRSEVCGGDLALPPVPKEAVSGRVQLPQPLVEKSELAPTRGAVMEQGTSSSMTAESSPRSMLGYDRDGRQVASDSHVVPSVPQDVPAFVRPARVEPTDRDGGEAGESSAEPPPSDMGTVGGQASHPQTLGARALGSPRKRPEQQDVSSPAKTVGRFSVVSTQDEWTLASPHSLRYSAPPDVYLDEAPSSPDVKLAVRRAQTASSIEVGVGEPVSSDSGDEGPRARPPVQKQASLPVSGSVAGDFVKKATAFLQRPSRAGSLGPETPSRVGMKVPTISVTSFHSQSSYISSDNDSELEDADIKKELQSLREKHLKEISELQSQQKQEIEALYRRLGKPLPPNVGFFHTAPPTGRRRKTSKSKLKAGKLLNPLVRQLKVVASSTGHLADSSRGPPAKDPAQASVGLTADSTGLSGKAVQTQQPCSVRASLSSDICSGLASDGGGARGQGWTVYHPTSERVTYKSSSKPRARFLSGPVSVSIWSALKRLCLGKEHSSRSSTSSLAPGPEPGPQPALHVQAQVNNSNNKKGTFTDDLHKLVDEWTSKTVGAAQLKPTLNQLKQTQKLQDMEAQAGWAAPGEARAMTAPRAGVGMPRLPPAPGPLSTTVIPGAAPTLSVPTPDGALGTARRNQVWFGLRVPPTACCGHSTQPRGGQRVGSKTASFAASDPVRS
Sequence of UniProt Q12851 (whole entry, looked up): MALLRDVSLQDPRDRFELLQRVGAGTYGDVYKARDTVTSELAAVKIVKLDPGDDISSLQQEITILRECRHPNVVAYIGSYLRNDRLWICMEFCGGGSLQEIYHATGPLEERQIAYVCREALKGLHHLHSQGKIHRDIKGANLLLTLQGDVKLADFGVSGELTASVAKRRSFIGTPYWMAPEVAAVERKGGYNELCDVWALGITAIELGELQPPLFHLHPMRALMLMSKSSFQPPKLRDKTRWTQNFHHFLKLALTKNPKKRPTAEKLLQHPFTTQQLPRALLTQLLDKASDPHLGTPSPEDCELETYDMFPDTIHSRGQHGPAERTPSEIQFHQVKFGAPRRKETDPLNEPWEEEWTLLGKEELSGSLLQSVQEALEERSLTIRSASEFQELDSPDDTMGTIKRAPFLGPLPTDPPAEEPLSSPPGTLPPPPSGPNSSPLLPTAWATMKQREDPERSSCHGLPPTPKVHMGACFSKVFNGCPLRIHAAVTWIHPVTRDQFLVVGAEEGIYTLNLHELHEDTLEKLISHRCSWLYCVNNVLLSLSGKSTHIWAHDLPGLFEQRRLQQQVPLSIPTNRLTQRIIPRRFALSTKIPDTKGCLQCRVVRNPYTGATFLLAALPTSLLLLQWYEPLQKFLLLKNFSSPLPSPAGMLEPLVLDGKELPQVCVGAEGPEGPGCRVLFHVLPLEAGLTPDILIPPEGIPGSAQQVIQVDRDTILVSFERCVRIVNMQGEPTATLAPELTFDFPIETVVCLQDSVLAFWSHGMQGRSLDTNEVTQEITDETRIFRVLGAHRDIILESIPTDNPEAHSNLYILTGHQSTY

Series 1 — species: mouse; sample: microsomes or S9; tested at: 2 µM; time: 0.5 h
| SMILES | remaining compound [%] |
| --- | --- |
| COc1ccccc1-c1coc2cc(O)ccc2c1=O | 74.3 |
| CN(Cc1cc2cc(F)ccc2[nH]1)C(=O)CC1C(=O)NCCN1CC(C)(C)C (stereo not shown) | 0.264 |
| Cc1cc(C)n(Cc2nnc(Nc3ccccc3)o2)n1 | 2.21 |
| COc1cccc(Nc2ccc(-n3ccnc3)nn2)c1 | 96.2 |
| Cc1n[nH]c(-c2ccccc2)c1-c1nc2ccccc2n1Cc1ccccc1 | 2.23 |
| CC(C)Cn1c(C(C)C)nnc1N1C[C@@H]2CCS(=O)(=O)[C@@H]2C1 | 73.5 |
| OC1(c2ccc(Br)cc2)CCNCC1 | 23 |
| CCOCc1cc(-c2ccccc2)[nH]c(=O)c1C#N | 30.1 |
| OC1CCC(Nc2nc(-c3ccncc3)nc3c2CCC3)CC1 (stereo not shown) | 38.4 |
| CC(C)C(C(=O)NC1CCN(C(=O)NC(C)(C)C)CC1)N(C)C (stereo not shown) | 49.7 |
| O=C(O)CN1C(=O)S/C(=C\C=C2\SCCN2CCCS(=O)(=O)O)C1=S | 94.2 |

Series 2 — SMILES: Nc1ncnc2c1cnn2-c1ccccc1; read-out: enzyme activity; mode: inhibitor; tested at: 0.5 µM; baseline: control
| target | remaining activity |
| --- | --- |
| cGMP-dependent protein kinase 1 (PRKG1, Homo sapiens, UniProt Q13976) | 91.3% |
| Mitogen-activated protein kinase kinase kinase kinase 2 (MAP4K2, Homo sapiens, UniProt Q12851) | 94.9% |
| Dual specificity mitogen-activated protein kinase kinase 6 (MAP2K6, Homo sapiens, UniProt P52564) | 90.8% |
| Leucine-rich repeat serine/threonine-protein kinase 2 (LRRK2, Homo sapiens, UniProt Q5S007) | 99.3% |
| Tyrosine-protein kinase BTK (BTK, Homo sapiens, UniProt Q06187) | 98.7% |
| Serine/threonine-protein kinase WNK2 (WNK2, Homo sapiens, UniProt Q9Y3S1) | 114% |
| Serine/threonine-protein kinase 38 (STK38, Homo sapiens, UniProt Q15208) | 98.6% |
| Mitogen-activated protein kinase kinase kinase 10 (MAP3K10, Homo sapiens, UniProt Q02779) | 88.6% |
| Cyclin-dependent kinase 9, with cyclin T1 (CDK9, Homo sapiens, UniProt P50750) | 109% |
| Serine/threonine-protein kinase PLK2 (PLK2, Homo sapiens, UniProt Q9NYY3) | 99.2% |
| RAC-gamma serine/threonine-protein kinase (AKT3, Homo sapiens, UniProt Q9Y243) | 102% |
| Casein kinase I isoform alpha (CSNK1A1, Homo sapiens, UniProt P48729) | 79.8% |
| Ephrin type-A receptor 5 (EPHA5, Homo sapiens, UniProt P54756) | 95.6% |
| Mitogen-activated protein kinase 12 (MAPK12, Homo sapiens, UniProt P53778) | 90.6% |
| Interleukin-1 receptor-associated kinase 4 (IRAK4, Homo sapiens, UniProt Q9NWZ3) | 89.4% |
| Serine/threonine-protein kinase Nek4 (NEK4, Homo sapiens, UniProt P51957) | 98.7% |
| Mast/stem cell growth factor receptor Kit (KIT, Homo sapiens, UniProt P10721) | 89.5% |
| Casein kinase II subunit alpha (CSNK2A1, Homo sapiens, UniProt P68400) | 94.4% |
| MAP kinase-interacting serine/threonine-protein kinase 2 (MKNK2, Homo sapiens, UniProt Q9HBH9) | 72.7% |
| Serine/threonine-protein kinase Chk1 (CHEK1, Homo sapiens, UniProt O14757) | 92.5% |
| Protein kinase C delta type (PRKCD, Homo sapiens, UniProt Q05655) | 93% |
| Tyrosine-protein kinase Lyn (LYN, Homo sapiens, UniProt P07948) | 102% |

Series 3
SMILES: COc1cc(C(=O)N2CCC(N3CCN(C)CC3)CC2)ccc1Nc1ncc2c(n1)N(C)c1ccccc1C(=O)N2C
| target or system | assay | test system | conditions | inhibition [%] |
| --- | --- | --- | --- | --- |
| ILK (mouse) | probe labelling, KiNativ, item: WQGNDIVVkVLK peptide, LYS1 site | brain tissue lysate (mouse) | 0.1 µM, together with: ATP acyl-phosphate probe | -6.6 |
| SYK mouse | KiNativ profiling | mouse brain lysate | 1 µM, LYS1 site, together with: ADP acyl phosphate probe | 15.1 |
| FYN (mouse) | probe labelling, KiNativ ADP probe | mouse brain lysate | 1 µM, LYS1 labelled site | 10.1 |
| ZAP70 (human) | probe labelling, KiNativ, item: DFG motif peptide | PBMC lysate (human) | 0.1 µM, together with: ADP acyl-phosphate probe | 10.3 |
| mouse IKKε and TBK1 | probe labelling, KiNativ ATP probe | mouse brain lysate | 1 µM, LYS2 site DIkPGNIMR | -5.5 |
| CaMKK2 (mouse) | probe labelling, KiNativ, item: Lys1 site peptide | brain tissue lysate (mouse) | 0.1 µM, together with: ATP acyl-phosphate probe | -0.9 |
| human PBMC | probe labeling, inhibitor, KiNativ profiling | cell lysate | concentration not given, domain 1, DFG motif site, together with: ADP acyl-phosphate probe 0.1 µM | -10.2 |
| MAP2K6 (mouse) | probe labelling, KiNativ ADP probe | mouse brain lysate | 0.1 µM, LYS2 labelled site | -2.1 |
| IGF1R (mouse) | probe labelling, KiNativ ADP probe | mouse brain lysate | 0.1 µM, LYS1 labelled site | -2.7 |
| SGK3 (mouse) | probe labelling, KiNativ, item: FYAVkVLQK peptide, LYS1 site | brain tissue lysate (mouse) | 1 µM, together with: ADP acyl-phosphate probe | -17.2 |
| PIP5K3 human | KiNativ profiling | human PBMC | 0.1 µM, ATP site, together with: ADP acyl phosphate probe | -10.7 |
| mouse CaMK2δ | probe labelling, KiNativ ATP probe | mouse brain lysate | 0.1 µM | -6.7 |
| mouse PKACα | probe labelling, KiNativ ADP probe | mouse brain lysate | 1 µM, LYS1 site | 5.1 |
| mouse FER | probe labelling, KiNativ ATP probe | mouse brain lysate | 0.1 µM, activation loop site | -8 |

Series 4 — read-out: ligand displacement; tested at: 10 µM
Target: Histamine H3 receptor (HRH3, Homo sapiens, UniProt Q9Y5N1)
Sequence of UniProt Q9Y5N1 (whole entry, looked up): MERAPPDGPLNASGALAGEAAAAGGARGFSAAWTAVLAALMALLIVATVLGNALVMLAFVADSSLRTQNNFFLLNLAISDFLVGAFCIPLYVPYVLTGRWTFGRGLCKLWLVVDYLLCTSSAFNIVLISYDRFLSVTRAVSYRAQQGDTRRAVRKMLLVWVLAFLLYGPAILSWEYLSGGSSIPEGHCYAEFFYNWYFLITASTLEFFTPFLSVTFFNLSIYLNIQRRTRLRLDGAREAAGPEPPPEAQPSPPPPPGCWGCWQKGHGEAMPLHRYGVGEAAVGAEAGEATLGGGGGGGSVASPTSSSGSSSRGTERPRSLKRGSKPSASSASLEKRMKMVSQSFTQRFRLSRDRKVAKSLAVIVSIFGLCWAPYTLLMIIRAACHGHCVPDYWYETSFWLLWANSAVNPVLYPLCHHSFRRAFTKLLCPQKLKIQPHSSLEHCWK
| Structure (SMILES) | inhibition [%] |
| --- | --- |
| NS(=O)(=O)c1cc(NC(=O)Cc2ccccc2)ccc1Oc1cccc(Cl)c1 | -10.9 |
| Cc1noc([C@H]2C[C@@H](c3ccc(C(F)(F)F)cc3)CN(C(=O)N3CCS(=O)(=O)C3)C2)n1 | 5.78 |
| Cc1ncc(-c2cc(Cl)ccc2F)cc1-n1c(=O)n(CC(N)=O)c2ccccc21 | -8.16 |
| CN(C)CC#Cc1ccc(OCCCc2sc(N3CCc4cccc(C(=O)Nc5nc6ccccc6s5)c4C3)nc2C(=O)O)c(F)c1 | 53.3 |
| CC[C@H](CC(=O)O)n1c(=O)c2ncccc2n(Cc2cn(C)c3cc(C)cc(C)c23)c1=O | 3.32 |
| CC(=O)N1CCC(c2ccc(C(=O)NC3=NCCN3)cc2C(F)(F)F)CC1 | -18 |
| CN([C@@H]1CCc2c(CC(=O)O)c3ccccc3n2C1)S(=O)(=O)c1ccc(F)cc1 | 4.03 |
| O=c1nc(-c2ccccn2)sc2ccccc12 | 2 |
| CCC(=NO)C(C)=Cc1ccc(F)c(C)c1 | -0.3 |
| O=C(NCCCC1CCCCC1)c1ccc(CNC(=O)c2cnn(-c3ccccc3)c2C(F)(F)F)cc1 | 9.12 |
| COc1cc(N[C@@H]2CCCC[C@]2(O)C(F)(F)F)ccc1F | -2.34 |
| O=C1NC(c2ccccn2)Sc2ccccc21 (stereo not shown) | 8.1 |
| CN1CCN(c2ccnc(NCCc3ccccc3)n2)CC1 | 86.2 |
| CCc1ccccc1C(=O)Nc1n[nH]c2c(C)c(F)c(C3C(C#N)=C(C)N(C)C(C)=C3C#N)cc12 | -10.8 |
| CN(C)C(=O)c1sc2nc(N3CCC(S(C)(=O)=O)CC3)cc(C(F)(F)F)c2c1N | -1.1 |
| CN(C)c1ncnc(-c2ccc3nc(Nc4cc(CN5CCN(C(=O)CC(F)(F)F)CC5)ccn4)[nH]c3c2)c1Cl | 4.68 |
| O=C(N[C@H]1CCCCC/C=C\C2C[C@@]2(C(=O)O)NC(=O)[C@@H]2C[C@@H](Oc3ccncc3)CN2C1=O)OC1CCCC1 (stereo partly shown) | 2.64 |

Some of these lines once more (series 1):
| SMILES | remaining compound [%] |
| --- | --- |
| COc1ccccc1-c1coc2cc(O)ccc2c1=O | 74.3 |
| CN(Cc1cc2cc(F)ccc2[nH]1)C(=O)CC1C(=O)NCCN1CC(C)(C)C (stereo not shown) | 0.264 |
| Cc1cc(C)n(Cc2nnc(Nc3ccccc3)o2)n1 | 2.21 |
| COc1cccc(Nc2ccc(-n3ccnc3)nn2)c1 | 96.2 |
| Cc1n[nH]c(-c2ccccc2)c1-c1nc2ccccc2n1Cc1ccccc1 | 2.23 |
| CC(C)Cn1c(C(C)C)nnc1N1C[C@@H]2CCS(=O)(=O)[C@@H]2C1 | 73.5 |
| OC1(c2ccc(Br)cc2)CCNCC1 | 23 |
| CCOCc1cc(-c2ccccc2)[nH]c(=O)c1C#N | 30.1 |
